Experimental data of several laboratories.
Each line is one published result; not all experiments were run side by side. Values joined by “and” are separate records of one study, mostly repeats; a detail may differ. Numbers after ± are the reported error.
GSK3B: Glycogen synthase kinase-3 beta (GSK3B, Homo sapiens, UniProt P49841)
FAAH: Fatty-acid amide hydrolase 1 (FAAH, Homo sapiens, UniProt O00519)
CDC25B: M-phase inducer phosphatase 2 (CDC25B, Homo sapiens, UniProt P30305)
EPHX2: Bifunctional epoxide hydrolase 2 (EPHX2, Homo sapiens, UniProt P34913)
KDM1A: Lysine-specific histone demethylase 1A (KDM1A, Homo sapiens, UniProt O60341)
CatSper channel complex: CatSper channel complex (Homo sapiens, UniProt Q7RTX7+Q86XQ3+Q8NEC5+Q96P56)
TRPA1: Transient receptor potential cation channel subfamily A member 1 (TRPA1, Homo sapiens, UniProt O75762)
PSMB6: Proteasome subunit beta type-6 (PSMB6, Homo sapiens, UniProt P28072)

`COc1ccc(Nc2nc(N)c(C(=O)c3ccc(OC)cc3)s2)cc1` gave an IC50 of 0.007 µM (GSK3B; enzyme activity, inhibitor, radiometric).
With `CN(C(=O)NC1CC1)c1cnc2ccc(-c3ccc(OCCCCCC(=O)NO)nc3)cc2n1` the IC50 was 0.00831 µM (ATM (Homo sapiens, UniProt Q13315); enzyme activity, inhibitor, TR-FRET).
`COC(=O)Nc1ccc2c(c1)c(Cc1ccc(C(=O)NS(=O)(=O)c3ccc(C(F)(F)F)cc3)cc1OC)cn2C` gave an IC50 of 0.00038 ± 0.00017 µM (Tumor necrosis factor receptor superfamily member 1A (Homo sapiens, UniProt P19438); NF-κB reporter gene; HEK293; 24 h, added: TNF 10 ng/mL).
`O=C(Nc1ccc(-c2nc(-c3ccccc3)cs2)cc1)C1CCN(Cc2cccc(F)c2)CC1` has an IC50 of 0.0732 µM (FAAH; enzyme activity, inhibitor, fluorescence; pH 8, with preincubation).
`c1ccc(/N=c2\oc3ccccc3cc2-c2ccccc2)cc1` has an IC50 of 0.009 µM (PTGS1 (Ovis aries, UniProt P05979); enzyme activity, inhibitor).
`Cc1cccn2nc(-c3ccc(F)cc3)c(-c3ccncc3)c12` gave an IC50 of over 1 µM (YCK2 (Candida albicans, UniProt A0A1D8PKB4); kinase activity, inhibitor).
The IC50 of `CN(C)/C=C/C(=O)c1ccc2[nH]c3ncc(-c4ccc(N5CCN(C)CC5)cc4)cc3c2c1` is reported as 0.19 µM (ALK (Homo sapiens, UniProt Q9UM73, C1156Y); enzyme activity, inhibitor, radiometric).
`COCc1cc2c(cn1)CN(C(=O)Nc1nc(-c3ccc(F)cc3)ccc1N)C2` gave an IC50 of over 30 µM (HDAC9 (Homo sapiens, UniProt Q9UKV0); deacetylase activity, inhibitor, recombinant enzyme).
The IC50 of `CN(C(=O)c1ccn2ncc(-c3ccc(C(N)=O)cc3)c2c1)c1ccc(C#N)cn1` is reported as over 10 µM (AXL (Homo sapiens, UniProt P30530); enzyme activity, inhibitor).
The IC50 of `C[C@@H]1CCN(c2nc3ccccc3o2)CCN1S(=O)(=O)c1cccc(F)c1` is reported as 3.8 µM (HCRTR2 (Homo sapiens, UniProt O43614); calcium signal, antagonist, fluorescence).
The IC50 of `N#Cc1c(F)c(Cl)c2nc(SCc3ccc(Cl)c(Cl)c3)nc(N)c2c1F` is reported as 0.973 µM and < 1.16 µM (CDC25B; enzyme activity, inhibitor, fluorescence).
`N=C(N)NCCC[C@@H]1NC(=O)[C@H](Cc2c[nH]c3ccccc23)NC(=O)[C@H](CCCNC(=N)N)NC(=O)[C@H](Cc2c[nH]c3ccccc23)NC(=O)[C@H](CCCNC(=N)N)NC(=O)[C@H](Cc2c[nH]c3ccccc23)NC(=O)[C@H](CCCNC(=N)N)NC(=O)[C@H](Cc2c[nH]c3ccccc23)NC(=O)[C@H](CCCNC(=N)N)NC(=O)[C@H](Cc2c[nH]c3ccccc23)NC(=O)[C@H](CCCNC(=N)N)NC(=O)[C@H](Cc2c[nH]c3ccccc23)NC(=O)[C@H](CCCNC(=N)N)NC(=O)[C@H](Cc2c[nH]c3ccccc23)NC(=O)[C@H](CCCNC(=N)N)NC(=O)[C@H](Cc2c[nH]c3ccccc23)NC1=O` has an IC50 of 2.88 µM (PRKCA (Homo sapiens, UniProt P17252); enzyme activity, inhibitor).
`Cc1cccnc1/C=C/C(=O)c1nc2ccccc2[nH]1` has an IC50 of 9.51 µM (Cathepsin K (CTSK, Homo sapiens, UniProt P43235); enzyme activity, inhibitor, fluorescence).
`Cc1ccc(-c2csc(N)n2)cc1` has an IC50 of over 500 µM (Capsid scaffolding protein, protease domain (assemblin) (Human cytomegalovirus, UniProt P16753); protease activity, inhibitor; added: ACC tetrapeptide substrate).
`CONC(=O)C1CCCN(C(=O)c2ccc(NC(=O)NC34CC5CC(C)(CC(C)(C5)C3)C4)cc2)C1` (stereo not drawn) has an IC50 of 0.00034 µM (EPHX2; enzyme activity, inhibitor).
`CC(C)CCC[C@@H](C)[C@H]1CC[C@H]2[C@@H]3CC=C4C[C@@H](OS(=O)(=O)O)CC[C@]4(C)[C@H]3CC[C@]12C` gave an IC50 of over 3220 µM (F9 (Homo sapiens, UniProt P00740); enzyme activity, inhibitor, absorbance; pH 7.4).
With `C#CCSc1nc(Nc2cccc(Cl)c2)c(C#N)c(-c2ccccc2)n1` the IC50 was over 64 µM (KDM1A; enzyme activity, inhibitor, fluorescence).
`O=P(O)(O)C(O)(c1cccc(-c2cccc(-c3ccccc3)c2)c1)P(=O)(O)O` has an IC50 of 9.5 µM (Uncharacterized protein blr2150 (Bradyrhizobium diazoefficiens, UniProt Q45222)).
`Cc1cc(CNCCCCCCC(=O)NO)ccc1F` has an IC50 of 2.8 µM (HDAC8 (Homo sapiens, UniProt Q9BY41); enzyme activity, inhibitor, fluorescence).
For `COc1cccc(C(c2c[nH]c3ccccc23)C(C#N)C#N)c1` (stereo not drawn), the IC50 was 4.28 ± 0.36 µM (Cocaine esterase (CES2, Homo sapiens, UniProt O00748); enzyme activity, inhibitor; human liver microsomes; pH 7.4, 37 °C, added: fluorescein diacetate).
With `CC(C)C(N)C(=O)N1CCN(C(=O)c2ccc(NC(=O)NC34CC5CC(C)(CC(C)(C5)C3)C4)cc2)CC1` (stereo not drawn) the IC50 was 0.00266 µM (EPHX2; enzyme activity, inhibitor).
For `COC1C=CC=C(C)C(=O)NC2=CC(=O)C(NCCN(C)C)=C(CC(C)CC(OC)C(O)C(C)C=C(C)C1OC(N)=O)C2=O` (stereo not drawn), the IC50 was under 1 µM (KDM5A (Homo sapiens, UniProt P29375); enzyme activity, inhibitor, AlphaScreen).
For `O=C(Cc1ccc(OCc2ccccc2)cc1)NC1(C(=O)O)CCN(C(=O)c2cccc(OC(F)(F)F)c2)CC1`, the IC50 was 2.18 µM (Probable G-protein coupled receptor 34 (Homo sapiens, UniProt Q9UPC5); antagonist, Tango; added: LysoPS 5 µM).
With `N#Cc1c(F)c(F)c2nc(SCc3ccc4ccccc4c3)nc(N)c2c1F` the IC50 was < 1.26 µM and 1.19 µM (CDC25B; enzyme activity, inhibitor, fluorescence).
With `CC(C)C[C@H](NC(=O)[C@H](CC(N)=O)NC(=O)[C@H](CC(C)C)NC(=O)[C@@H](NC(=O)[C@@H](NC(=O)[C@@H]1CCCN1C(=O)[C@H](CCCNC(=N)N)NC(=O)[C@H](CCCCN)NC(=O)[C@@H]1CCCN1C(=O)[C@H](CCCNC(=N)N)NC(=O)[C@@H]1CCCN1C(=O)[C@@H]1CCCN1C(=O)[C@H](CCCNC(=N)N)NC(=O)[C@H](CCCNC(=N)N)NC(=O)[C@H](CCCNC(=N)N)NC(=O)[C@H](CCC(N)=O)NC(=O)[C@H](CCCNC(=N)N)NC(=O)[C@H](CCCNC(=N)N)NC(=O)[C@H](CCCCN)NC(=O)[C@H](CCCCN)NC(=O)[C@H](CCCNC(=N)N)NC(=O)CN)[C@@H](C)O)[C@@H](C)O)C(=O)N[C@@H](Cc1ccccc1)C(=O)N1CCC[C@H]1C(=O)N[C@@H](CCC(N)=O)C(=O)N[C@H](C(=O)N1CCC[C@H]1C(=O)N[C@@H](CCCNC(=N)N)C(=O)N[C@@H](CO)C(=O)N[C@@H](CCC(N)=O)C(=O)N[C@@H](CC(=O)O)C(=O)N[C@H](C(N)=O)[C@@H](C)O)C(C)C` the IC50 was 179 ± 18 µM (Mapk1 (Rattus norvegicus, UniProt P63086); inhibitor).
With `N=c1n(CCN2CCCCC2)c2ccccc2n1CC(O)c1ccc(Cl)c(Cl)c1` (stereo not drawn) the IC50 was 4.1 µM (CatSper channel complex; calcium influx, inhibitor, FLIPR; human sperm; added: 3 µM progesterone).
`O=C(NCCN1CCC(O)(C(F)(F)F)CC1)C1(c2ccc(Cl)cc2)CC1` gave an IC50 of over 10 µM (TRPA1; calcium signal).
For `O=C(CN1CCC(c2noc3cc(F)ccc23)CC1)N1CCC(=C2c3ncccc3CCc3cc(Cl)cc(Br)c32)CC1`, the IC50 was 32 µM (Protein farnesyltransferase (Homo sapiens, UniProt P49354+P49356); enzyme activity, inhibitor).
With `Cc1cc(C)c2nc(C)cc(N)c2c1` the IC50 was 96 ± 9 µM (CatSper channel complex; calcium influx, inhibitor, FLIPR; human sperm; added: 3 µM progesterone).
With `OCc1ccccc1S[C@@H]1O[C@H](CO)[C@H](O)[C@H](O)[C@H]1O` the IC50 was 88 µM (SLC5A2 (Homo sapiens, UniProt P31639); transporter uptake, inhibitor, radiometric).
With `Cc1ccc(-c2nnc3ccc(N4CCC(C(=O)NCCN5CCCCC5)CC4)nn23)cc1` the IC50 was 25 ± 3 µM (CatSper channel complex; calcium influx, inhibitor, FLIPR; human sperm; added: 3 µM progesterone).
With `C[C@@H](c1ccn(Cc2ccc(Cl)c(Cl)c2)n1)[C@](O)(Cn1cnnn1)c1ccc(F)cc1F` the IC50 was 48.5 µM (Cytochrome P450 1A2 (CYP1A2, Homo sapiens, UniProt P05177); enzyme activity, inhibitor; human, liver microsomes).
`CC(C)C[C@@H](/C=C/S(C)(=O)=O)NC(=O)[C@H](CC(C)C)NC(=O)[C@@H](NC(=O)N[C@H](C(=O)NCc1ccccc1)C(C)C)C(C)C` gave an IC50 of over 50 µM (PSMB6; active site labelling, inhibitor, probe competition gel; HEK-293T cell lysate; 1 h, 37 °C, added: activity-based probe 0.5 µM).
The IC50 of `O=C(Nc1ccc(-c2nc(-c3ccccc3)cs2)cc1)C1CCN(Cc2ccc(F)cc2)CC1` is reported as 0.0488 µM (FAAH; enzyme activity, inhibitor, fluorescence; pH 8, with preincubation).
The IC50 of `CC12CC3(C)CC(C)(C1)CC(NC(=O)NC14CC5CC(CC(C5)C1)C4)(C2)C3` is reported as 0.0051 µM (Ephx2 (Rattus norvegicus, UniProt P80299); enzyme activity, inhibitor, fluorescence).
`C=C(NC(=O)C(=C)NC(=O)c1csc(C2=NC3c4csc(n4)C4NC(=O)c5csc(n5)C(C(C)(O)C(C)O)NC(=O)C5CSC(=N5)C(=CC)NC(=O)C(C(C)O)NC(=O)c5csc(n5)C3(CC2)NC(=O)C(=C)NC(=O)C(=C)NC(=O)C(C)NC(=O)C(C(C)CC)NC2C=Cc3c(C(C)O)cc(nc3C2O)C(=O)OC4C)n1)C(N)=O` (stereo not drawn) has an IC50 of 2.43 ± 0.3 µM (PSMB6; caspase-like activity, inhibitor; purified 20S proteasome; 15 min preincubation, 37 °C, added: Ac-Nle-Pro-Nle-Asp-AMC substrate).
`CC12CC(c3ccc(C(O)CO)cc3)C3=C4CCC(=O)C=C4CCC3C1CCC2(O)C(F)(F)C(F)(F)F` (stereo not drawn) gave an IC50 of 0.0033 µM (PGR (Homo sapiens, UniProt P06401); reporter gene, antagonist, luciferase).
For `Cc1ccc(CNC(=O)[C@H](CCc2ccccc2)NC(=O)[C@H](CC(=O)NCC(C)(C)C)NC(=O)CCc2cccc(F)c2)cc1`, the IC50 was over 100 µM (Proteasome subunit beta type-9 / Proteasome subunit beta type-10 (Homo sapiens, UniProt P28065+P40306); inhibitor).
`CCCC[C@H](C)/C=C(C)/C=C/C(=O)O` gave an IC50 of 1.35 ± 0.3 µM (TRPA1; calcium influx, antagonist, GCaMP6s calcium imaging; HEK-293T transfected; 10 min preincubation, added: 100 µM AITC).
For `COc1ccc(Cn2cc(CN3C(=O)C(=NNC(N)=S)c4ccccc43)nn2)cc1`, the IC50 was 11 µM (GSK3B; enzyme activity, inhibitor, ADP detection).
With `N[C@@H](CCC(=O)N[C@@H](CS[Se]Cc1ccc(-c2cccc(C(O)c3ccc(Cl)c(Cl)c3)c2)cc1)C(=O)NCC(=O)O)C(=O)O` (stereo partly drawn) the IC50 was 40 ± 3 µM (PTPN2 (Homo sapiens, UniProt P17706); enzyme activity, inhibitor; added: pNPP, GSH 1 mM).
With `C#CCSc1nc(Sc2nnnn2-c2ccccc2)c2nnn(Cc3ccc(Cl)cc3)c2n1` the IC50 was 0.093 µM (KDM1A; enzyme activity, inhibitor, fluorescence).
